{"data": "Experimental data collected from several papers", "note": "A part holds a random share of what one study measured. Positions count from the first letter of the parent shown."}
{"data": "Sample 1", "target": "TAR DNA-binding protein 43, full length, His tag (TARDBP, Homo sapiens, UniProt Q13148, residues 1-414)", "method": "RNA Bind-n-Seq", "form": "RNA", "matrix": "in vitro", "concentration": "20 nM", "setting": "6-mer, flanks averaged, single round", "together with": "150 mM KCl", "reference": "input library", "reading": "higher = stronger binding"}
{"Strand": "UAAGUC", "6-mer enrichment (R)": 0.592}
{"Strand": "CGAAUU", "6-mer enrichment (R)": 0.594}
{"Strand": "CGGGUG", "6-mer enrichment (R)": 3.9}
{"Strand": "GCCACG", "6-mer enrichment (R)": 1.04}
{"Strand": "CCGCCU", "6-mer enrichment (R)": 0.633}
{"Strand": "CAUCAG", "6-mer enrichment (R)": 0.653}
{"Strand": "UGAAUC", "6-mer enrichment (R)": 0.629}
{"Strand": "GCAGCU", "6-mer enrichment (R)": 0.869}
{"Strand": "CGACAU", "6-mer enrichment (R)": 0.623}
{"Strand": "AAUCAG", "6-mer enrichment (R)": 0.662}
{"Strand": "GGCGAG", "6-mer enrichment (R)": 3.8}
{"Strand": "UUCACU", "6-mer enrichment (R)": 0.544}
{"Strand": "ACUGCC", "6-mer enrichment (R)": 0.65}
{"Strand": "CAACAC", "6-mer enrichment (R)": 0.633}
{"Strand": "ACGCCU", "6-mer enrichment (R)": 0.633}
{"Strand": "CUUGCA", "6-mer enrichment (R)": 0.648}
{"data": "Sample 2", "target": "Interferon regulatory factor 5, full length, phosphomimetic (IRF5, Homo sapiens, UniProt Q13568-2, residues 1-514, K96S/S451D/S453D/S456D/S462D)", "method": "protein-binding microarray", "form": "double-stranded DNA, one strand shown", "matrix": "in vitro", "concentration": "250 nM", "setting": "60-bp whole probe", "together with": "salmon DNA 0.4 mg/ml", "reference": "random background probes", "reading": "higher = stronger binding", "shared flanks, not repeated": "GCCTAGCAC … GTCTTGATTCGCTTGACGCTGCTG"}
{"Strand": "GACGATCTCCGTATCGAGACGTGCTAG", "log fluorescence [z-score]": 0.409}
{"Strand": "TCAAAAATGCCCTTTTGGACTGTGCTA", "log fluorescence [z-score]": 0.215}
{"Strand": "TGGACTGTGTGTTTGAGTCTGTGCTAG", "log fluorescence [z-score]": -0.509}
{"Strand": "GACGGTATCGGGACTGGGGCCGTGCTA", "log fluorescence [z-score]": 1.07}
{"Strand": "TTAGATATCAGTCTCGACTAGTGCTAG", "log fluorescence [z-score]": 1.34}
{"Strand": "TTTTTTCTACTTCTCTTTTGGTGCTAG", "log fluorescence [z-score]": 3.11}
{"Strand": "TCAGGTTTCACTTTAAAACTGTGCTAG", "log fluorescence [z-score]": 5.8}
{"Strand": "TCACCTTTGAAAGTTGTTACTGTGCTA", "log fluorescence [z-score]": 0.755}
{"Strand": "TTAAATTTCAGTCTCGATTAGTGCTAG", "log fluorescence [z-score]": 3.96}
{"Strand": "GACGGACTGGGTCTCGGGACGTGCTAG", "log fluorescence [z-score]": -0.756}
{"Strand": "TCACTAATCTCACTCTGACTGTGCTAG", "log fluorescence [z-score]": 0.44}
{"Strand": "TCATTTTTTTTTTTGTAACTGTGCTAG", "log fluorescence [z-score]": 1.09}
{"Strand": "TTAGATTCCAGTTTAGATTAGTGCTAG", "log fluorescence [z-score]": 0.664}
{"Strand": "GACGGTTTCAGACTGGAGACGTGCTAG", "log fluorescence [z-score]": 0.68}
{"Strand": "TCAATGATCTCTCTGGGACTGTGCTAG", "log fluorescence [z-score]": -0.0749}
{"Strand": "GGTCCTCTCTCTATTCAGAGGTGCTAG", "log fluorescence [z-score]": -0.235}
{"Strand": "GGACTCACCTAGTTTCATTCCGTGCTA", "log fluorescence [z-score]": 2.31}
{"Strand": "GACGGTATCGGGACTGGGTACGTGCTA", "log fluorescence [z-score]": 1.22}
{"Strand": "GACGGTATCGGGTATCGCGACGTGCTA", "log fluorescence [z-score]": 2.98}
{"data": "Sample 3", "target": "CCNE2, cyclin fold, Cln2 fusion (human)", "method": "yeast growth competition, sequencing", "matrix": "yeast", "setting": "strong parent motif", "reference": "not given", "reading": "higher = stronger binding", "starting sequence": "PKN2 docking peptide (human); VSAVRKLDFSDTM; partner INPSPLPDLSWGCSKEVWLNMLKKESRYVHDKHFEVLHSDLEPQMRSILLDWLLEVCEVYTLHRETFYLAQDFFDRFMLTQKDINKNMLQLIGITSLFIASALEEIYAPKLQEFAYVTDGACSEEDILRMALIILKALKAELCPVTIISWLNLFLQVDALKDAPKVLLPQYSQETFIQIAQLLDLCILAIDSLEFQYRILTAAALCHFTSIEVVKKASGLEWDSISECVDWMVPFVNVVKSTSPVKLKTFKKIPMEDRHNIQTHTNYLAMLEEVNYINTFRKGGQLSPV"}
{"Substitution": "VSAVRKLDVSDTM [F9V]", "normalised enrichment score": 0.34}
{"Substitution": "VSAVRVLDFSDTM [K6V]", "normalised enrichment score": 3.75}
{"Substitution": "VSAVRKLDFSLTM [D11L]", "normalised enrichment score": 4.89}
{"Substitution": "VSAVRFLDFSDTM [K6F]", "normalised enrichment score": 2.17}
{"Substitution": "VSAVWKLDFSDTM [R5W]", "normalised enrichment score": 0.119}
{"Substitution": "VSAVRKLDFTDTM [S10T]", "normalised enrichment score": 4.44}
{"Substitution": "VSAVRKLDMSDTM [F9M]", "normalised enrichment score": 0.795}
{"Substitution": "VSAVHKLDFSDTM [R5H]", "normalised enrichment score": -0.033}
{"Substitution": "VSYVRKLDFSDTM [A3Y]", "normalised enrichment score": 4.6}
{"Substitution": "VSAVRKLDFKDTM [S10K]", "normalised enrichment score": 3.32}
{"Substitution": "VSAVTKLDFSDTM [R5T]", "normalised enrichment score": 0.0743}
{"Substitution": "VSAVCKLDFSDTM [R5C]", "normalised enrichment score": 0.845}
{"Substitution": "VSAVRKLDSSDTM [F9S]", "normalised enrichment score": 0.391}
{"Substitution": "VIAVRKLDFSDTM [S2I]", "normalised enrichment score": 2.61}
{"Substitution": "VSAVRKKDFSDTM [L7K]", "normalised enrichment score": 0.108}
{"Substitution": "VSAVRKLDFNDTM [S10N]", "normalised enrichment score": 4.46}
{"Substitution": "VSAVRKSDFSDTM [L7S]", "normalised enrichment score": 0.193}
{"Substitution": "VCAVRKLDFSDTM [S2C]", "normalised enrichment score": 3.79}
{"Substitution": "VSHVRKLDFSDTM [A3H]", "normalised enrichment score": 6.03}
{"data": "Sample 4", "target": "Sal-like protein 4, full length isoform B (SALL4, Homo sapiens, UniProt Q9UJQ4-2, residues 1-616)", "method": "universal PBM", "form": "double-stranded DNA, one strand shown", "matrix": "in vitro", "concentration": "not given", "setting": "8-mer, flanks averaged, mean of replicates", "reading": "higher = stronger binding"}
{"Strand": "ATTAGATC", "E-score": 0.196}
{"Strand": "AACTGTGC", "E-score": -0.0485}
{"Strand": "ATATAGTC", "E-score": 0.344}
{"Strand": "AAATGCGC", "E-score": -0.0854}
{"Strand": "CATTGTGG", "E-score": -0.0198}
{"Strand": "GGTGATCA", "E-score": -0.0634}
{"Strand": "ACTTCAAT", "E-score": 0.261}
{"Strand": "TAACCGGA", "E-score": -0.106}
{"Strand": "GCCCGTTA", "E-score": -0.0862}
{"Strand": "ATTGCGAG", "E-score": 0.0686}
{"Strand": "AGCATCCG", "E-score": -0.301}
{"Strand": "TATGCTGA", "E-score": 0.15}
{"Strand": "GATTCGTA", "E-score": 0.0938}
{"Strand": "CCGTTTTC", "E-score": -0.187}
{"Strand": "CCCCAGCG", "E-score": -0.3}
{"Strand": "CCATCGGG", "E-score": -0.226}
{"Strand": "ACCCGGAG", "E-score": -0.239}
{"Strand": "AAGTAGGG", "E-score": 0.0648}
{"Strand": "ACAATTAA", "E-score": 0.364}
{"Strand": "GAGGCGCA", "E-score": -0.191}
{"Strand": "GGTGTTCA", "E-score": -0.026}
{"Strand": "ACTAGATG", "E-score": 0.0461}
{"Strand": "ATGTATCC", "E-score": 0.185}
{"Strand": "CCTGAAGC", "E-score": -0.228}
{"Strand": "AAATTTGA", "E-score": 0.296}
{"data": "Sample 5", "target": "ABI1, truncated, D143A, DHFR fusion (Arabidopsis thaliana)", "method": "DHFR PCA, deep sequencing", "matrix": "yeast", "setting": "methotrexate growth selection, single substitutions", "together with": "(+)-ABA 0.0091 µM", "reference": "wild-type fitted maximum", "reading": "higher = stronger binding", "starting sequence": "PYL1, truncated, DHFR fusion (Arabidopsis thaliana); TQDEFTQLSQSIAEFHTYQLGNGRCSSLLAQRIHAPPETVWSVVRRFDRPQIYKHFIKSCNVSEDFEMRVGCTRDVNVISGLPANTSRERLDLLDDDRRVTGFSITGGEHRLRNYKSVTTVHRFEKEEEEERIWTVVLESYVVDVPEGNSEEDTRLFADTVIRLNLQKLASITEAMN"}
{"Substitution": "F66N", "relative binding score": "7.02%"}
{"Substitution": "A13T", "relative binding score": "19.6%"}
{"Substitution": "G102W", "relative binding score": "6.87%"}
{"Substitution": "F103C", "relative binding score": "-0.796%"}
{"Substitution": "D92I", "relative binding score": "-4.88%"}
{"Substitution": "E151A", "relative binding score": "49.7%"}
{"Substitution": "G21L", "relative binding score": "0.971%"}
{"Substitution": "R74D", "relative binding score": "-9.67%"}
{"Substitution": "N165S", "relative binding score": "2.18%"}
{"Substitution": "H34L", "relative binding score": "26%"}
{"Substitution": "F5L", "relative binding score": "45.9%"}
{"Substitution": "R98M", "relative binding score": "1.47%"}
{"Substitution": "T101G", "relative binding score": "-6.71%"}
{"Substitution": "T101K", "relative binding score": "0.819%"}
{"Substitution": "V44R", "relative binding score": "3.04%"}
{"Substitution": "Q10V", "relative binding score": "3.24%"}
{"Substitution": "E147K", "relative binding score": "20.1%"}
{"Substitution": "Q7C", "relative binding score": "14%"}
{"Substitution": "R163H", "relative binding score": "1.09%"}
{"Substitution": "I105V", "relative binding score": "22.5%"}
